Experimental data gathered from unrelated publications.
Each numbered part is a random draw from the data of one study; scales do not carry over between parts. Positions count from the first letter of the parent shown.

Block 1
Target: CCNF, cyclin fold, Cln2 fusion (human)
Method: yeast growth competition, sequencing
Matrix: yeast
Setting: strong parent motif
Baseline: not given
Direction: higher = stronger binding
Measurement: normalised enrichment score
Parent: E2F7 docking peptide (human); SSAQRRLEIPSGG
L7A: 0.325
S2A: 1.88
R5K I9L: 0.729
I9A: 0.353
R5K I9F: 5.88
G12A: 2.78
P10A: 1.48
R5A: 0.323

Block 2
Target: NFE2L3, bZIP domain (human)
Method: DHFR protein complementation
Matrix: yeast
Setting: single substitutions, most at no-binding floor
Baseline: wild-type JUN-FOS pair
Direction: higher = stronger binding
Measurement: binding fitness
Parent: JUN, bZIP domain (human); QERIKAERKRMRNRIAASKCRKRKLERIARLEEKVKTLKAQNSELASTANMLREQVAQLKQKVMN; partner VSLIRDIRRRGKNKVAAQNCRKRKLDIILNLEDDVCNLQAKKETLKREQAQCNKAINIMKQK
K36F: -1.51 natural log
S47R: -1.34 natural log
A46H: -1.54 natural log
L38A: -1.48 natural log
E32G: -1.44 natural log
E33S: -1.52 natural log
L38N: -1.53 natural log
E44F: -1.48 natural log
E44K: -1.54 natural log
L45V: -1.47 natural log
A49P: -1.51 natural log
K34V: -1.58 natural log
N42A: -1.47 natural log

Block 3
Target: ABI1, truncated, D143A, DHFR fusion (Arabidopsis thaliana)
Method: DHFR PCA, deep sequencing
Matrix: yeast
Setting: methotrexate growth selection, single substitutions
Together with: (+)-ABA 0.39 µM
Baseline: wild-type fitted maximum
Direction: higher = stronger binding
Measurement: relative binding score
Parent: PYL1, truncated, DHFR fusion (Arabidopsis thaliana); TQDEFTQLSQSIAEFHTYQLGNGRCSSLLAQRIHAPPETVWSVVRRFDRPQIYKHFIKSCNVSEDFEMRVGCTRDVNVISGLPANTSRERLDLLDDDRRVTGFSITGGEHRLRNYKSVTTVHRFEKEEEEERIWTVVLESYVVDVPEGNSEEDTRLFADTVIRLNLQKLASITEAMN
T73M: 55.2%
I33C: 6.23%
T173A: 43.7%
L164M: 50.9%
H122I: -12.2%
E152W: 4.94%
E174H: 4.91%
G71H: -3.13%
K54C: -9.29%

Block 4
Target: TAR DNA-binding protein 43, full length, His tag (TARDBP, Homo sapiens, UniProt Q13148, residues 1-414)
Method: RNA Bind-n-Seq
Form: RNA
Matrix: in vitro
Concentration: 20 nM
Setting: 6-mer, flanks averaged, single round
Together with: 150 mM LiCl
Baseline: input library
Direction: higher = stronger binding
Measurement: 6-mer enrichment (R)
CAAAAU: 0.895
CCAACU: 0.862
GUCUUC: 0.867
GGUCCU: 0.938
CGACCG: 0.815
UGCUCU: 0.906
AGCGGG: 1.12
GCAUCA: 0.839
UAAAGU: 0.943
GACACG: 0.903
AUACGC: 0.857
AUCUUU: 1.03
CUUCGC: 0.846
AAACCG: 0.79
UACUAC: 0.843
UCGCUA: 0.853
AACGGA: 0.871

A few entries again (block 3):
E152W: 4.94%
L164M: 50.9%
K54C: -9.29%
I33C: 6.23%
H122I: -12.2%
T73M: 55.2%
E174H: 4.91%
